Results gathered from unrelated publications.
Lines come from different studies, so protocols differ.
Medium: plasma

Structure (SMILES)	system	setting	quantity	result
COc1ccc(C[C@@H](C)[C@@H](C)Cc2ccc(OC)c(OC)c2)cc1OC	male beagle dog	oral, 100 mg/kg/day, multiple doses, once daily	AUC(0-t)	10300 ng·h/mL
Cc1c(C(=O)O)ccc2c3n(nc12)[C@@H]1[C@H](C3)N(CC2CC2)[C@@]2(C(=O)Nc3cc(Cl)ccc32)[C@H]1c1cccc(Cl)c1F	male dog	oral, 2 mg/kg	AUC(0-inf)	15.8 µM·h
Cc1nc(-c2cnc(NC(C)C)n(C)c2=O)ccc1Oc1ccnc(-c2cnn(C)c2)c1	male beagle dog	intravenous, 1 mg/kg	AUC(0-t)	7040 ng·h/mL
CC1(C)CCC(c2ccc(Cl)cc2)=C(CN2CCN(c3ccc(C(=O)NS(=O)(=O)c4ccc(N[C@H](CCN5CCOCC5)CSc5ccccc5)c(S(=O)(=O)C(F)(F)F)c4)cc3)CC2)C1	male beagle dog	oral, 25 mg/kg, single dose	AUC(0-t)	295000 ng·h/mL
COc1cc2c3c(n(CCCN4CCOCC4)c(=O)c2cc1OC)-c1cc2c(cc1C3=O)OCO2	female beagle dog	intravenous, 50 mg/m², infusion	AUC(0-inf)	1110 ng·h/mL
O=C1CC[C@H](N2Cc3c(ccc4c3OCC43CCN(C[C@@H]4CCC5(CCN(c6ccc([C@@H]7c8ccc(O)cc8CC[C@@H]7c7ccccc7)cc6)CC5)OC4)CC3)C2=O)C(=O)N1	beagle dog	oral, 3 mg/kg	AUC(0-inf)	15100 ng·h/mL
CC1(C)CCC(CN2CCN(c3ccc(C(=O)NS(=O)(=O)c4ccc(NCC5CCOCC5)c([N+](=O)[O-])c4)c(Oc4cnc5[nH]ccc5c4)c3)CC2)=C(c2ccc(Cl)cc2)C1	male beagle dog	oral, 25 mg/kg, single dose	AUC(0-t)	145000 ng·h/mL
N#C[C@@]1(c2ccc3c(N)ncnn23)O[C@H](CO)[C@@H](O)[C@H]1O	dog	oral, 5 mg/kg	AUC(0-t)	61.5 µM·h
